# Measured values collected from several papers.
# Protocols differ between the studies behind these lines. Numbers after ± are the reported error.
Compound,test,system,setting,how to read,endpoint,value
CCCC[C@@H]1NC(=O)[C@H](Cc2ccc(O)cc2)NC(=O)[C@@H]2CCCN2C(=O)[C@H](CC(=O)O)NC(=O)[C@H](C)NC(=O)[C@H](Cc2ccccc2)NC(=O)[C@@H]2CSCCC(=O)N3CN(CN(C3)C(=O)CCSC[C@@H](C(=O)N[C@@H](C)C(N)=O)NC1=O)C(=O)CCSC[C@H](NC(C)=O)C(=O)N[C@@H](CC(C)(C)C)C(=O)N1CCC[C@H]1C(=O)N[C@@H](CCC(=O)O)C(=O)N[C@H](CCCCNC(=O)CCc1cn(CCOCCOCCOCCOCCOCCC(=O)N[C@H]3CSCCC(=O)N4CN5CN(C4)C(=O)CCSC[C@H](NC(=O)[C@@H](CC(=O)O)NC(=O)[C@H](Cc4cccc6ccccc46)NC(=O)[C@@H]4CCCN4C3=O)C(=O)N[C@@H](CCSC)C(=O)N[C@@H](CCCCNC(=N)N)C(=O)N[C@@H](CC(=O)O)C(=O)N[C@@H](Cc3c[nH]c4ccccc34)C(=O)N[C@@H](CO)C(=O)N[C@@H]([C@@H](C)O)C(=O)N3CCC[C@H]3C(=O)N3C[C@H](O)C[C@H]3C(=O)N[C@@H](Cc3c[nH]c4ccccc34)C(=O)N[C@H](C(N)=O)CSCCC5=O)nn1)C(=O)N1CCC[C@H]1C(=O)N[C@@H](Cc1ccc(O)cc1)C(=O)N2,,Sprague-Dawley rat,,,unbound Vdss,2.8 L/kg
Cn1cncc1[C@@](N)(c1ccc(Cl)cc1)c1ccc2c(c1)c(-c1cccc(Cl)c1)cc(=O)n2C,,"cancer patients, moderate hepatic impairment, plasma",200 mg twice daily,,unbound fraction,0.0093
Cc1cc(=O)n(-c2ccccc2)n1C,,"Sprague-Dawley rat, male",,,unbound intrinsic clearance,6.43 mL/min/kg
CCCC[C@@H]1NC(=O)[C@H](Cc2ccc(O)cc2)NC(=O)[C@@H]2CCCN2C(=O)[C@H](CC(=O)O)NC(=O)[C@H](C)NC(=O)[C@H](Cc2ccccc2)NC(=O)[C@@H]2CSCCC(=O)N3CN(CN(C3)C(=O)CCSC[C@@H](C(=O)N[C@@H](C)C(N)=O)NC1=O)C(=O)CCSC[C@H](NC(C)=O)C(=O)N[C@@H](CC(C)(C)C)C(=O)N1CCC[C@H]1C(=O)N[C@@H](CCC(=O)O)C(=O)N[C@H](CCCCNC(=O)CCc1cn(CCOCCOCCOCCOCCOCCOCCOCCOCCOCCOCCNC(=O)CCOCCN(CCOCCC(=O)NCCOCCOCCOCCOCCOCCOCCOCCOCCOCCOCCn3cc(CCC(=O)NCCCC[C@H]4NC(=O)[C@H](CCC(=O)O)NC(=O)[C@@H]5CCCN5C(=O)[C@H](CC(C)(C)C)NC(=O)[C@@H](NC(C)=O)CSCCC(=O)N5CN6CN(C5)C(=O)CCSC[C@H](NC(=O)[C@H](Cc5ccc(O)cc5)NC(=O)[C@@H]5CCCN5C4=O)C(=O)N[C@@H](Cc4ccccc4)C(=O)N[C@@H](C)C(=O)N[C@@H](CC(=O)O)C(=O)N4CCC[C@H]4C(=O)N[C@@H](Cc4ccc(O)cc4)C(=O)N[C@@H](CCCC)C(=O)N[C@H](C(=O)N[C@@H](C)C(N)=O)CSCCC6=O)nn3)CCOCCC(=O)NCCOCCOCCOCCOCCOCCOCCOCCOCCOCCOCCn3cc(CCC(=O)N[C@H]4CSCCC(=O)N5CN6CN(C5)C(=O)CCSC[C@H](NC(=O)[C@@H](CC(=O)O)NC(=O)[C@H](Cc5cccc7ccccc57)NC(=O)[C@@H]5CCCN5C4=O)C(=O)N[C@@H](CCSC)C(=O)N[C@@H](CCCCNC(=N)N)C(=O)N[C@@H](CC(=O)O)C(=O)N[C@@H](Cc4c[nH]c5ccccc45)C(=O)N[C@@H](CO)C(=O)N[C@@H]([C@@H](C)O)C(=O)N4CCC[C@H]4C(=O)N4C[C@H](O)C[C@H]4C(=O)N[C@@H](Cc4c[nH]c5ccccc45)C(=O)N[C@H](C(N)=O)CSCCC6=O)nn3)nn1)C(=O)N1CCC[C@H]1C(=O)N[C@@H](Cc1ccc(O)cc1)C(=O)N2,,Sprague-Dawley rat,,,unbound clearance,51 mL/min/kg
Cc1cc(C)c(CNC(=O)c2cc(Cl)c3c(c2C)O[C@@](C)([C@H]2CC[C@H](N(C)C)CC2)O3)c(=O)[nH]1,,moderate hepatic impairment,"oral, dose not given",relative to: normal hepatic function,unbound AUCss increase,29%
NCCOCC(=O)N1CCC[C@H](C(=O)NCc2nc(-c3ccc(C(F)(F)F)cc3)cs2)C1,,"Sprague-Dawley rat, male, plasma","intravenous, 1 mg/kg",,unbound hepatic CLint,120 mL/min/kg
COc1ccc([C@@H]2Sc3ccccc3N(CCN(C)C)C(=O)[C@@H]2OC(C)=O)cc1,,"Sprague-Dawley rat, male",,,unbound intrinsic clearance,2590 mL/min/kg
CCOCC(=O)N1CCC[C@H](C(=O)NCc2nc(-c3ccc(C)nc3)cs2)C1,,"Sprague-Dawley rat, male, plasma","intravenous, 1 mg/kg",,unbound hepatic CLint,38 mL/min/kg
Cc1c(Br)cc(NC(=O)CS(=O)(=O)O)cc1Br,,"Sprague-Dawley rats, plasma","oral, 30 mg/kg",,unbound Cmax,< 85 nM
CCOCC(=O)N1CCC[C@H](C(=O)NCc2nc(-c3ccc(C#N)nc3)cs2)C1,,"Sprague-Dawley rat, male, plasma","oral, 3 mg/kg",,unbound AUC,1.1 µM·h
C[C@@H](NC(=O)c1ccc(C#Cc2cccc(F)c2)cn1)C(C)(C)O,,rats,"i.p., 10 mg/kg, 2 h",,unbound brain concentration,22 ± 1.5 nM
CC(C)(N)COCC(=O)N1CCC[C@H](C(=O)NCc2nc(-c3ccc(C(F)(F)F)cc3)cs2)C1,,"Sprague-Dawley rat, male, plasma","oral, 3 mg/kg",,unbound AUC,0.0055 µM·h
CCCC[C@@H]1NC(=O)[C@H](Cc2ccc(O)cc2)NC(=O)[C@@H]2CCCN2C(=O)[C@H](CC(=O)O)NC(=O)[C@H](C)NC(=O)[C@H](Cc2ccccc2)NC(=O)[C@@H]2CSCCC(=O)N3CN(CN(C3)C(=O)CCSC[C@@H](C(=O)N[C@@H](CNC(=O)CCOCCOCCOCCOCCOCCOCCOCCOCCOCCOCCOCCOCCn3cc(CCC(=O)NCCC(=O)N(C)CC(=O)N(C)CC(=O)N(C)CC(=O)N(C)CC(=O)N(C)CC(=O)N(C)CC(=O)N(C)CC(=O)N(C)CC(=O)N(C)CC(=O)N(C)CC(=O)N[C@H]4CSCCC(=O)N5CN6CN(C5)C(=O)CCSC[C@H](NC(=O)[C@@H](CC(=O)O)NC(=O)[C@H](Cc5cccc7ccccc57)NC(=O)[C@@H]5CCCN5C4=O)C(=O)N[C@@H](CCSC)C(=O)N[C@@H](CCCCNC(=N)N)C(=O)N[C@@H](CC(=O)O)C(=O)N[C@@H](Cc4c[nH]c5ccccc45)C(=O)N[C@@H](CO)C(=O)N[C@@H]([C@@H](C)O)C(=O)N4CCC[C@H]4C(=O)N4C[C@H](O)C[C@H]4C(=O)N[C@@H](Cc4c[nH]c5ccccc45)C(=O)N[C@H](C(N)=O)CSCCC6=O)nn3)C(N)=O)NC1=O)C(=O)CCSC[C@H](NC(C)=O)C(=O)N[C@@H](CC(C)(C)C)C(=O)N1CCC[C@H]1C(=O)N[C@@H](CCC(=O)O)C(=O)N[C@H](C)C(=O)N1CCC[C@H]1C(=O)N[C@@H](Cc1ccc(O)cc1)C(=O)N2,,Sprague-Dawley rat,,,unbound Vdss,1.4 L/kg
COCCc1ccc(OCC(O)CNC(C)C)cc1 (centres unmarked),,"Sprague-Dawley rat, male",,,unbound intrinsic clearance,2640 mL/min/kg
CCCC[C@@H]1NC(=O)[C@H](Cc2ccc(O)cc2)NC(=O)[C@@H]2CCCN2C(=O)[C@H](CC(=O)O)NC(=O)[C@H](C)NC(=O)[C@H](Cc2ccccc2)NC(=O)[C@@H]2CSCCC(=O)N3CN(CN(C3)C(=O)CCSC[C@@H](C(=O)N[C@@H](C)C(N)=O)NC1=O)C(=O)CCSC[C@H](NC(C)=O)C(=O)N[C@@H](CC(C)(C)C)C(=O)N1CCC[C@H]1C(=O)N[C@@H](CCC(=O)O)C(=O)N[C@H](CCCCNC(=O)CCc1cn(CCOCCOCCOCCOCCOCCOCCOCCOCCOCCOCCNC(=O)c3cc(C(=O)NCCOCCOCCOCCOCCOCCOCCOCCOCCOCCOCCn4cc(CCC(=O)NCCCC[C@H]5NC(=O)[C@H](CCC(=O)O)NC(=O)[C@@H]6CCCN6C(=O)[C@H](CC(C)(C)C)NC(=O)[C@@H](NC(C)=O)CSCCC(=O)N6CN7CN(C6)C(=O)CCSC[C@H](NC(=O)[C@H](Cc6ccc(O)cc6)NC(=O)[C@@H]6CCCN6C5=O)C(=O)N[C@@H](Cc5ccccc5)C(=O)N[C@@H](C)C(=O)N[C@@H](CC(=O)O)C(=O)N5CCC[C@H]5C(=O)N[C@@H](Cc5ccc(O)cc5)C(=O)N[C@@H](CCCC)C(=O)N[C@H](C(=O)N[C@@H](C)C(N)=O)CSCCC7=O)nn4)cc(C(=O)NCCOCCOCCOCCOCCOCCOCCOCCOCCOCCOCCn4cc(CCC(=O)N[C@H]5CSCCC(=O)N6CN7CN(C6)C(=O)CCSC[C@H](NC(=O)[C@@H](CC(=O)O)NC(=O)[C@H](Cc6cccc8ccccc68)NC(=O)[C@@H]6CCCN6C5=O)C(=O)N[C@@H](CCSC)C(=O)N[C@@H](CCCCNC(=N)N)C(=O)N[C@@H](CC(=O)O)C(=O)N[C@@H](Cc5c[nH]c6ccccc56)C(=O)N[C@@H](CO)C(=O)N[C@@H]([C@@H](C)O)C(=O)N5CCC[C@H]5C(=O)N5C[C@H](O)C[C@H]5C(=O)N[C@@H](Cc5c[nH]c6ccccc56)C(=O)N[C@H](C(N)=O)CSCCC7=O)nn4)c3)nn1)C(=O)N1CCC[C@H]1C(=O)N[C@@H](Cc1ccc(O)cc1)C(=O)N2,,Sprague-Dawley rat,,,unbound clearance,51 mL/min/kg
Cc1c(C(=O)O)ccc2c3n(nc12)[C@@H]1[C@H](C3)N(CC2CC2)[C@@]2(C(=O)Nc3cc(Cl)ccc32)[C@H]1c1cccc(Cl)c1F,equilibrium dialysis,"RjHan:WI rat, both sexes, plasma",pH 7.4,,unbound fraction,0.001
CCONC(=O)N1CCC[C@H](C(=O)NCc2nc(-c3ccc(C#N)cc3)cs2)C1,,"Sprague-Dawley rat, male, plasma","oral, 3 mg/kg",,unbound AUC,0.2 µM·h

# Repeated from above:
Compound,test,system,setting,how to read,endpoint,value
COc1ccc([C@@H]2Sc3ccccc3N(CCN(C)C)C(=O)[C@@H]2OC(C)=O)cc1,,"Sprague-Dawley rat, male",,,unbound intrinsic clearance,2590 mL/min/kg
CCOCC(=O)N1CCC[C@H](C(=O)NCc2nc(-c3ccc(C)nc3)cs2)C1,,"Sprague-Dawley rat, male, plasma","intravenous, 1 mg/kg",,unbound hepatic CLint,38 mL/min/kg
Cc1c(Br)cc(NC(=O)CS(=O)(=O)O)cc1Br,,"Sprague-Dawley rats, plasma","oral, 30 mg/kg",,unbound Cmax,< 85 nM
